Measured values pooled from the literature.
Compare with care: the assays were run in different laboratories. Values joined by “and” are separate records of one study, mostly repeats; a detail may differ. ± marks the error that the study gave.
ALB: Albumin (ALB, Homo sapiens, UniProt P02768)

SMILES	target	assay	system	conditions	scale	quantity	result
CC[C@H](C)[C@@H]1NC(=O)[C@H](Cc2ccc(O)cc2)NC(=O)[C@H](CC(C)C)NC(=O)[C@@H]2CCCN2C(=O)[C@@H](NC(=O)[C@H](CCCNC(=N)N)NC(=O)[C@H](CCCNC(=N)N)NC(C)=O)CSSC[C@@H](C(=O)N[C@@H](CCCNC(=N)N)C(=O)N[C@@H](CCCNC(=N)N)C(N)=O)NC(=O)[C@H](C(C)C)NC(=O)[C@@H]2CCCN2C(=O)[C@H](CC(=O)O)NC(=O)[C@H](Cc2cc(F)c(F)c(F)c2)NC(=O)[C@H](Cc2cscn2)NC1=O	GTPase KRas, GDP-bound (KRAS, Homo sapiens, UniProt P01116, G12D)	affinity selection mass spectrometry	–	mixture library 2, together with: protein titration up to 5 µM	lower is stronger binding	lowest bound protein concentration	0.62 µM
O=c1cc(CO)occ1[O-].[Cl-].[W+4].c1cc[cH-]c1.c1cc[cH-]c1	ALB	binding, fluorescence quenching	–	317 K	–	Gibbs free energy change	-25.2 kJ/mol
C[C@@H](c1ccc(-n2cnc3c(N)ncnc32)cc1)N1CCc2nn(C)c(Cc3ccccc3)c2C1=O	Ribosomal protein S6 kinase alpha-6, C-terminal kinase domain (RPS6KA6, Homo sapiens, UniProt Q9UK32)	KINOMEscan	–	0.1 µM	relative to: DMSO control	remaining binding	79%
C=CC[C@H]1c2ccc(OC)c(OC)c2CN2CCc3cc4c(cc3[C@@H]12)OCO4	P2X purinoceptor 7 (P2RX7, Homo sapiens, UniProt Q99572)	ATP-evoked current, inhibitor, whole-cell patch clamp	HEK293 transfected	3 µM	–	remaining activity	89.5%
Cc1cc(-c2ccnc3[nH]cc(F)c23)cc(F)c1[C@@]1(O)[C@H](C)CN(C(=O)CN)C[C@@H]1C	JAK1 (Homo sapiens, UniProt P23458)	ATP/ADP probe binding, KiNativ	HEK293T lysate	10 µM, activation loop domain 1	–	probe labelling inhibition	78.7%
CC(C)OCCn1c(=S)[nH]c(=O)c2[nH]ccc21	Myeloperoxidase (MPO, Homo sapiens, UniProt P05164)	H2O2 consumption, inhibitor, H2O2 electrode	–	10 µM, 0.2 s	–	H2O2 concentration	-0.719 µM
N[C@H](CNC(=O)c1ccc(-c2cccc(F)c2)s1)C(=O)O	Glutamate receptor ionotropic, NMDA 1, with GluN2C (Grin1, Rattus norvegicus, UniProt P35439)	–	–	together with: glutamate 300 µM	–	Hill slope	1.46
O=C(COP(=O)(O)O)[C@@H](O)[C@H](O)[C@H](O)COP(=O)(O)O	PRPF8 (Homo sapiens, UniProt Q6P2Q9)	thermal proteome profiling	HepG2 cell lysate	concentration not given, 57 over 37 °C, mean	relative to: compound over control	thermal stability ratio	0.542
Nc1ncnc2c1ncn2[C@@H]1O[C@H](COP(=O)(O)CP(=O)(O)OP(=O)(O)O)[C@@H](O)[C@H]1O	P2X purinoceptor 1 (P2RX1, Homo sapiens, UniProt P51575)	saturation binding	HEK293	1 nM	–	specific binding	368 CCPM and 360 CCPM and 151 CCPM and 233 CCPM and 293 CCPM
CC(C)C[C@H](N)C(=O)Nc1ccc2ccccc2c1	Puromycin-sensitive aminopeptidase (Rattus norvegicus, UniProt F1M9V7)	substrate	–	MW 100 kDa	–	kcat	72.3 s⁻¹
Cc1ccc2nc(NC(=O)c3ccccc3)[nH]c2c1	ADORA2A (Homo sapiens, UniProt P29274)	binding, radioligand competition	–	10 µM, together with: [3H]ZM241385	–	displacement	17 ± 1%
CCCCCCCCCCCCCCCCCCCC	uncharacterized protein (Spodoptera exigua, UniProt F1CEY0)	binding, competitor, fluorescence displacement	–	20 µM, pH 7.4, together with: 1-NPN 20 µM	relative to: 1-NPN alone	relative fluorescence	77.9%
Nc1nc2c(ncn2[C@@H]2O[C@H](COP(=O)(O)O)[C@@H](O)[C@H]2O)c(=O)[nH]1	GUK1 (Homo sapiens, UniProt Q16774)	enzyme activity, NADH-coupled	–	125 µM, together with: NaCl 10 mM	–	reaction velocity	0.0664 µM/s and 0.0651 µM/s and 0.0673 µM/s
N#Cc1ccn2c(-c3ccncc3)c(-c3ccc(F)cc3)nc2c1	Carbon catabolite-derepressing protein kinase (SNF1, Candida albicans, UniProt P52497)	kinase binding, competitor, MIB/MS competition, measured: SNF1	Candida albicans cell lysate	10 µM	relative to: DMSO	log2 fold change	0.0847
OC[C@H]1O[C@@H](Oc2cc3c(O)cc(O)cc3[o+]c2-c2ccc(O)c(O)c2)[C@H](O)[C@@H](O)[C@@H]1O	ALB	van't Hoff analysis	–	concentration not given	–	binding enthalpy change	-14.8 kJ/mol

A few entries again:
SMILES	target	assay	system	conditions	scale	quantity	result
CC(C)C[C@H](N)C(=O)Nc1ccc2ccccc2c1	Puromycin-sensitive aminopeptidase (Rattus norvegicus, UniProt F1M9V7)	substrate	–	MW 100 kDa	–	kcat	72.3 s⁻¹
